Results of several laboratories.
Each line is one published result; not all experiments were run side by side. Numbers after ± are the reported error.

| SMILES | test system | conditions | tissue uptake [%ID/g] |
| --- | --- | --- | --- |
| N=C(N)NCCC[C@@H]1NC(=O)[C@H](CCCCNC(=O)CNC(=O)CNC(=O)CNC(=O)CC[C@H](NC(=O)CCOCCOCCOCCOCCNC(=O)CC[C@H](NC(=O)CN2CCN(CC(=O)O)CCN(CC(=O)O)CCN(CC(=O)O)CC2)C(=O)NCCOCCOCCOCCOCCC(=O)N[C@@H](CCC(=O)NCC(=O)NCC(=O)NCC(=O)NCCCC[C@@H]2NC(=O)[C@@H](Cc3ccccc3)NC(=O)[C@H](CC(=O)O)NC(=O)CNC(=O)[C@H](CCCNC(=N)N)NC2=O)C(=O)NCC(=O)NCC(=O)NCC(=O)NCCCC[C@@H]2NC(=O)[C@@H](Cc3ccccc3)NC(=O)[C@H](CC(=O)O)NC(=O)CNC(=O)[C@H](CCCNC(=N)N)NC2=O)C(=O)NCC(=O)NCC(=O)NCC(=O)NCCCC[C@@H]2NC(=O)[C@@H](Cc3ccccc3)NC(=O)[C@H](CC(=O)O)NC(=O)CNC(=O)[C@H](CCCNC(=N)N)NC2=O)NC(=O)[C@@H](Cc2ccccc2)NC(=O)[C@H](CC(=O)O)NC(=O)CNC1=O [indium-111 labelled] | athymic nude mice, female, U-87 MG glioma xenograft, bone | intravenous, 3 µCi, 24 h | 0.84 ± 0.1 |
| N=C(N)NCCC[C@@H]1NC(=O)[C@H](CC(=O)NC23CNCCNCC(N)(CNCCNC2)CNCCNC3)NC(=O)[C@@H](Cc2ccccc2)NC(=O)[C@H](CC(=O)O)NC(=O)CNC1=O [copper-64 labelled] | Nu/Nu mouse, male, tumour-bearing, blood | intravenous, 10 µCi, 2 h | 0.14 ± 0.04 |
| CSCC[C@H](NC(=O)[C@H](CC(C)C)NC(=O)[C@H](Cc1c[nH]cn1)NC(=O)CNC(=O)[C@@H](NC(=O)[C@H](C)NC(=O)[C@H](Cc1c[nH]c2ccccc12)NC(=O)[C@H](CCC(N)=O)NC(=O)CCCCCNC(=O)CNC(=O)CNC(=O)CNC(=O)CSC(C)=O)C(C)C)C(N)=O [technetium-99m labelled] | nude mouse, PC-3 xenograft, lung | 30 min, added: excess unlabelled conjugate | 1.4 ± 0.23 |
| N=C(N)NCCC[C@@H]1NC(=O)[C@H](CCCCNC(=O)CC[C@H](NC(=O)CCOCCOCCOCCOCCNC(=O)CC[C@H](NC(=O)CN2CCN(CC(=O)O)CCN(CC(=O)O)CCN(CC(=O)O)CC2)C(=O)NCCOCCOCCOCCOCCC(=O)N[C@@H](CCC(=O)NCCCC[C@@H]2NC(=O)[C@@H](Cc3ccccc3)NC(=O)[C@H](CC(=O)O)NC(=O)CNC(=O)[C@H](CCCNC(=N)N)NC2=O)C(=O)NCCCC[C@@H]2NC(=O)[C@@H](Cc3ccccc3)NC(=O)[C@H](CC(=O)O)NC(=O)CNC(=O)[C@H](CCCNC(=N)N)NC2=O)C(=O)NCCCC[C@@H]2NC(=O)[C@@H](Cc3ccccc3)NC(=O)[C@H](CC(=O)O)NC(=O)CNC(=O)[C@H](CCCNC(=N)N)NC2=O)NC(=O)[C@@H](Cc2ccccc2)NC(=O)[C@H](CC(=O)O)NC(=O)CNC1=O [indium-111 labelled] | female athymic nude mice, spleen | intravenous, 3 µCi, 0.5 h, U-87 MG glioma xenograft | 2.36 ± 0.96 |
| CC(C)C[C@H](NC(=O)[C@H](Cc1ccc(O)cc1)NC(=O)[C@@H](CCCNC(=N)N)NC(=O)[C@@H](CO)NC(=O)[C@H](Cc1ccccc1)NC(=O)[C@H](CC1CCCCC1)NC(=O)[C@H](CC(=O)O)NC(=O)CCC(C(=O)O)N1CCCN2CCN(CCCN(CC(=O)O)CC2)CC1)C(=O)N[C@@H](Cc1c[nH]c2ccccc12)C(=O)N[C@@H](CO)C(=O)O (stereo partly shown) [copper-64 labelled] | female NMRI nude mice, blood | 1 h p.i. | 2 ± 0.3 |
| N=C(N)NCCC[C@@H]1NC(=O)[C@H](CCCCNC(=O)CCOCCOCCOCCOCCNC(=O)CN2CCN(CC(=O)O)CCN(CC(=O)O)CCN(CC(=O)O)CC2)NC(=O)[C@@H](Cc2ccccc2)NC(=O)[C@H](CC(=O)O)NC(=O)CNC1=O [indium-111 labelled] | female athymic nude mice, muscle | intravenous, 3 µCi, 4 h, U-87 MG glioma xenograft | 0.27 ± 0.03 |
| CCCC[C@H](NC(=O)CCCCCCCNC(=O)c1ccc(NN)nc1)C(=O)N[C@H]1CC(=O)NCCCC[C@@H](C(N)=O)NC(=O)[C@H](Cc2c[nH]c3ccccc23)NC(=O)[C@H](CCCNC(=N)N)NC(=O)[C@@H](Cc2ccccc2)NC(=O)[C@H](Cc2c[nH]cn2)NC1=O [technetium-99m labelled] | C57 mouse, B16/F1 melanoma, skin | 2 h, added: NDP-MSH 10 µg (6.07 nmol) co-injected | 0.45 ± 0.06 |
| CCCC[C@H](NC(=O)CNC(=O)CNC(=O)c1ccc(NN)nc1)C(=O)N[C@H]1CC(=O)NCCCC[C@@H](C(N)=O)NC(=O)[C@H](Cc2c[nH]c3ccccc23)NC(=O)[C@H](CCCNC(=N)N)NC(=O)[C@@H](Cc2ccccc2)NC(=O)[C@H](Cc2c[nH]cn2)NC1=O [technetium-99m labelled] | C57 mouse, B16/F1 melanoma-bearing, stomach | intravenous, 4 h | 0.52 ± 0.24 |
| CCCC[C@H](NC(=O)COCCOCCNC(=O)c1ccc(NN)nc1)C(=O)N[C@H]1CC(=O)NCCCC[C@@H](C(N)=O)NC(=O)[C@H](Cc2c[nH]c3ccccc23)NC(=O)[C@H](CCCNC(=N)N)NC(=O)[C@@H](Cc2ccccc2)NC(=O)[C@H](Cc2c[nH]cn2)NC1=O [technetium-99m labelled] | C57 mouse, female, B16/F1 melanoma, stomach | intravenous, 0.037 MBq, 2 h | 0.43 ± 0.05 |
| CSCC[C@H](NC(=O)[C@H](CC(C)C)NC(=O)[C@H](Cc1c[nH]cn1)NC(=O)CNC(=O)[C@@H](NC(=O)[C@H](C)NC(=O)[C@H](Cc1c[nH]c2ccccc12)NC(=O)[C@H](CCC(N)=O)NC(=O)CCCCCCCNC(=O)CCC(=O)Nc1ccc(CNC23CNCCNCC(N)(CNCCNC2)CNCCNC3)cc1)C(C)C)C(N)=O [copper-64 labelled] | female SCID mice, PC-3 xenograft, muscle | intravenous, 0.6 MBq, 1 h | 0.923 ± 0.274 |

Excerpt of the above:
| SMILES | test system | conditions | tissue uptake [%ID/g] |
| --- | --- | --- | --- |
| N=C(N)NCCC[C@@H]1NC(=O)[C@H](CCCCNC(=O)CNC(=O)CNC(=O)CNC(=O)CC[C@H](NC(=O)CCOCCOCCOCCOCCNC(=O)CC[C@H](NC(=O)CN2CCN(CC(=O)O)CCN(CC(=O)O)CCN(CC(=O)O)CC2)C(=O)NCCOCCOCCOCCOCCC(=O)N[C@@H](CCC(=O)NCC(=O)NCC(=O)NCC(=O)NCCCC[C@@H]2NC(=O)[C@@H](Cc3ccccc3)NC(=O)[C@H](CC(=O)O)NC(=O)CNC(=O)[C@H](CCCNC(=N)N)NC2=O)C(=O)NCC(=O)NCC(=O)NCC(=O)NCCCC[C@@H]2NC(=O)[C@@H](Cc3ccccc3)NC(=O)[C@H](CC(=O)O)NC(=O)CNC(=O)[C@H](CCCNC(=N)N)NC2=O)C(=O)NCC(=O)NCC(=O)NCC(=O)NCCCC[C@@H]2NC(=O)[C@@H](Cc3ccccc3)NC(=O)[C@H](CC(=O)O)NC(=O)CNC(=O)[C@H](CCCNC(=N)N)NC2=O)NC(=O)[C@@H](Cc2ccccc2)NC(=O)[C@H](CC(=O)O)NC(=O)CNC1=O [indium-111 labelled] | athymic nude mice, female, U-87 MG glioma xenograft, bone | intravenous, 3 µCi, 24 h | 0.84 ± 0.1 |
